Measurements gathered from unrelated publications.
A part holds a random share of what one study measured. Substitutions count along the parent as printed.

Block 1 — method: protein-binding microarray; form: double-stranded DNA, one strand shown; matrix: in vitro; tested at: 2540 nM top; setting: 60-bp whole probe; together with: salmon DNA 0.4 mg/ml; baseline: random background probes; direction: higher = stronger binding; measurement: fitted relative affinity; shared flanks, not repeated: GCCTAGCAC … GTCTTGATTCGCTTGACGCTGCTG
Target: Interferon regulatory factor 3, full length, phosphomimetic (IRF3, Homo sapiens, UniProt Q14653, residues 1-427, S386D/S396D/S398D/S402D/T404D/S405D)
Sequence of UniProt Q14653 (whole entry, unmodified, looked up): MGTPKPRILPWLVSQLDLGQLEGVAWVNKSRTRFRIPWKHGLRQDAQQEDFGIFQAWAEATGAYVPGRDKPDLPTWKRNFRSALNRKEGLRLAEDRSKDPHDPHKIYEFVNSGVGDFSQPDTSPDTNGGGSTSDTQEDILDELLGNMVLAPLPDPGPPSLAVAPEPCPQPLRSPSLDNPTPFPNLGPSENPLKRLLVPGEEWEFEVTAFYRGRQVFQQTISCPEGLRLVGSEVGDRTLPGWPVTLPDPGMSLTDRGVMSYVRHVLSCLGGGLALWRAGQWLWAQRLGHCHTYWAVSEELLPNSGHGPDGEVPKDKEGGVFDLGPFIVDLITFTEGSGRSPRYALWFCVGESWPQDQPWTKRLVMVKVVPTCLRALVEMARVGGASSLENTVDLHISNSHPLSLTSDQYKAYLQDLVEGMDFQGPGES
TACGGTATCGGTATCGGGACGTGCTAG: 4.48 z-score
TTAGGACCGGGGACTGGGTTAGTGCTA: -0.988 z-score
TCACCTTTCTGCCTCAGACTGTGCTAG: 4.48 z-score
GACGATTTCGGGACTGGAGGCGTGCTA: 1.85 z-score
TTACATTTCAGTTTCGATTAGTGCTAG: 5.16 z-score
GACGGTATCGGGTATCGGGAAGTGCTA: 1.96 z-score
TCAGGTCTCGGTTTCGGTTAGTGCTAG: 5.5 z-score
AGATACCTTTAACAGTGCCTGTGCTAG: 1.09 z-score
TTAGGTATCCTTTTCCTCTAGTGCTAG: 7.99 z-score
TTAGGCCTCCTACTGCTTTAGTGCTAG: -0.541 z-score
TTAGGTTTCGGTTCCGCTTAGTGCTAG: 10.7 z-score
TCAAAATTATCTTTAATACTGTGCTAG: -0.192 z-score
TTAGATTTCGCGTTTCGATTAGTGCTA: 1.91 z-score
TTAGATATCGGGTGTCGATTAGTGCTA: 0.0678 z-score
GACGGCTCCCTTTTCCTGACGTGCTAG: 2.76 z-score
TGTCCTTTCACTTTAACTTAGTGCTAG: 4.66 z-score
TTAGATTCCAGTTTAGATTAGTGCTAG: 3.23 z-score
ATAGATATCGGGTTTCGATTAGTGCTA: 2.36 z-score

Block 2 — target: CCNB3, cyclin fold, Cln2 fusion (human); method: yeast growth competition, sequencing; matrix: yeast; setting: weak parent motif; baseline: not given; direction: higher = stronger binding; measurement: normalised enrichment score
Parent: RB1 docking peptide (human); PKPLKKLRFDIEG; partner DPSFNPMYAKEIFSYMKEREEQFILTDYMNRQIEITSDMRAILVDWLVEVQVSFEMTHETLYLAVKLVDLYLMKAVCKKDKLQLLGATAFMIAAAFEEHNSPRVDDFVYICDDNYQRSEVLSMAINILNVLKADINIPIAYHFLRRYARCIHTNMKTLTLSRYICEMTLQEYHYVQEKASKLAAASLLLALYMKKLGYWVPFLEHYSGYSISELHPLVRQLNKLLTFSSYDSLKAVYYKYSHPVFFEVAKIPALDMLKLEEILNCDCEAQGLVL
PKPLKKLRFDITG [E12T]: 0.385
PKPLKKLREDIEG [F9E]: -0.25
PKPLKKIRFDIEG [L7I]: 0.285
PKPLKKLRFAIEG [D10A]: 0.264
PKPLKKLRFDEEG [I11E]: 0.335
PKPLKKLRFDIES [G13S]: 0.283
PPPLKKLRFDIEG [K2P]: 0.221
PKPLKKLRFDIEE [G13E]: 0.0998
PKILKKLRFDIEG [P3I]: -0.00148
PKALKKLRFDIEG [P3A]: 0.198
PKPLKLLRFDIEG [K6L]: 0.596
PKPLKKLTFDIEG [R8T]: 0.725
PKPLKKLRFDIEK [G13K]: 0.332
PKPLKKLDFDIEG [R8D]: 0.319
PKPLKPLRFDIEG [K6P]: 0.497
HKPLKKLRFDIEG [P1H]: 0.0997
PLPLKKLRFDIEG [K2L]: 0.376
PKPLLKLRFDIEG [K5L]: 0.165
PKMLKKLRFDIEG [P3M]: 0.213
PKPLKKLRFDIVG [E12V]: 0.0109
PKPLKKLRFDIEV [G13V]: 0.155
QKPLKKLRFDIEG [P1Q]: 0.202
PDPLKKLRFDIEG [K2D]: -0.445
PKPLKKLRFDIEN [G13N]: -0.000252
PKPLKILRFDIEG [K6I]: 0.476

Block 3 — method: Spec-seq; form: double-stranded DNA, one strand shown; matrix: in vitro; tested at: not given; setting: whole probe, mean of replicates; baseline: not given; direction: lower = stronger binding; measurement: relative binding energy; shared flanks, not repeated: GAGTCGTCTCGTCAGCAC … CCGTAGAGCACTCAGGTC
Target: POU, POU domain (Salpingoeca helianthica)
Residues (chain): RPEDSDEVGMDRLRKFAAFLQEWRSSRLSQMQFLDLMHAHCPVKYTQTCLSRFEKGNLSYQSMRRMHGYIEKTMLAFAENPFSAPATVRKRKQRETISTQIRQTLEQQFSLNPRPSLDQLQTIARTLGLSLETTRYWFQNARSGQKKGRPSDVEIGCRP
CACATAAT: 0.56 ln ratio
ATATACAT: 0.759 ln ratio
ATGCGGAT: 1.45 ln ratio
ATGCTGAT: 1.22 ln ratio
ATGCCAGT: 1.36 ln ratio
CTATTAAT: -0.433 ln ratio
ATGCGGGC: 1.41 ln ratio
ATGCTCAA: 1.3 ln ratio
ATGCGCTA: 1.11 ln ratio
ATGCAGTA: 1.28 ln ratio
ATGCCATA: 1.34 ln ratio
ATGCGGGA: 1.37 ln ratio
ATGCTATT: 1.11 ln ratio
GTCTTAAT: 0.455 ln ratio
CGAGTAAT: 0.182 ln ratio
AGCATAAT: 0.815 ln ratio
CAAGTAAT: 0.497 ln ratio
ATGTGGAT: 1.22 ln ratio
TATATAAT: 0.0511 ln ratio
ATGCGACG: 1.1 ln ratio
ATTAGAAT: 0.205 ln ratio
ATGCGCAA: 1.15 ln ratio
TCTCTAAT: 0.639 ln ratio
ATCTTGAT: 1.22 ln ratio
ATGCAAAT: 0.437 ln ratio

Block 4 — method: DHFR PCA, deep sequencing; matrix: yeast; together with: (+)-ABA 17 µM; baseline: wild-type fitted maximum; direction: higher = stronger binding; measurement: relative binding score
Target: ABI1, truncated, D143A, DHFR fusion (Arabidopsis thaliana)
Setting: methotrexate growth selection, single substitutions
Parent: PYL1, truncated, DHFR fusion (Arabidopsis thaliana); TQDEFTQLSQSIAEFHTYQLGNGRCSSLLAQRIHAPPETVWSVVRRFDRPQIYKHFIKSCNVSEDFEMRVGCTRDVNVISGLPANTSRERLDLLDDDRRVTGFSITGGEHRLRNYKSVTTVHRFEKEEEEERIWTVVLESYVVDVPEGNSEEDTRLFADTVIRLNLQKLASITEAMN; partner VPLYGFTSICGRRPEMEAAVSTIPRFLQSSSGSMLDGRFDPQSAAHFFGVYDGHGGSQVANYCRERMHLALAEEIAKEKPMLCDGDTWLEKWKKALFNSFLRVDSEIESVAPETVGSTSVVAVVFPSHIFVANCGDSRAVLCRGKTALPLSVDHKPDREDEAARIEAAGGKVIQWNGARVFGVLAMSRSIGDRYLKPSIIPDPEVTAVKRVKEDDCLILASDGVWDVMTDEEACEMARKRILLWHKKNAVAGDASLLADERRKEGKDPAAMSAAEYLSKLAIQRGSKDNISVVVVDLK
Q10N: 80.9%
L20G: 82.8%
S26V: 52.1%
Y141I: -12.3%
N149P: -2.17%
R155E: 13.6%
V161E: -15.5%
H34M: 82.6%
G107E: 41.4%
T120I: -0.755%
V118H: 72.3%
G102R: 11.6%

Block 5 — method: RNA Bind-n-Seq; form: RNA; matrix: in vitro; tested at: 365 nM; baseline: no-protein control; direction: higher = stronger binding; measurement: RBNS enrichment (R)
Target: RNA binding protein fox-1 homolog 2, RRM domain, GST-SBP tag (RBFOX2, Homo sapiens, UniProt O43251-10, residues 100-194)
Setting: natural RNA segment, single round, ends assumed
Shared flanks, not repeated: GGGAGUUCUACAGUCCGACGAUC … UGGAAUUCUCGGGUGCCAA
GGCUCUUCCUGCACUGCCCUCACCCUCAGCCGUCCCAAGGAGUGCCCAGCACUACUCAGCAUGUAGUCCAGGACCUGCGGCAUCAGCAUCCCCUGGGAGCUUCUUAGAAA: 8.44
GAGAGAGCGUGUAACGUCAGAUUUGUGCCUGUCUCGAACAUUCUGUCCUAAUCAUACUUAAACAUCAGGCAGGUGGGGUUCAGUGGUAAGCGAAGGGAUUAUUAGCAAGG: 1.81
CUAAUGUGUAUUAAAGUCAGAAAAUAAUAUAUUUAAGGUAUACUAAGUAUGAAUCUGCUAUGAUAAAAGAAAUUCUCACUUCUCAAAUAGUCUUCUUGUAAGGAGCAUUG: 0.361
GCAGAUAAGUCUUGGAGUGAAACAAAUAAAUAGCAUUGUAUUCCUGGCCAUUUGCCUGGCUAGUUGCUGUCUACAAGGGAGCAUCAAAACAUCACUACUUCUUAUGUAAC: 0.501
AGCCACUUAGUGCUUUGUCCUGGACUCCGCUCAGCCUGAGGCUGGGGAAUAGAAAGGGCAGACCCCAAGAGUUGGAGAUUAGAGGUCCCCUCCAGAUAGCAAGAGGUUUC: 0.497
AAAAAGGCUAAAGGCUAUGCGAUAUGAAUUUCAGAAAUGGACUGAAAAUGGAGAGCUAUGUAACAGAUACACUACAGUAGAAGAACUUACUUCUGAAAUGAAGGGAAAAA: 0.387
UCACCUUUACUCCAGUUCCCAACAAGUUCCUCAUCUUCAUCUGAGGCCACCUCAGCCUGGACUUUGUUGUCCAUAUUGCUAUCAGCAUUUGGGGCAAAGCCAUUCAACAA: 0.41
CUUGGUGGCAACUCCUUUGCAAUGCAGCUGGCAGCGACAUCCUUAUAAAAACAUGUGCUAAAGCUCUGUCCUCUGUUAGAGGUGCCUUUUAGGAAUACGGGGAGUGAAGG: 0.755
GGAUAAAGGCAAAUGAUUUGUGAGUCUUCUAGUUACUGGACCGAGUUUUCUGCUGGAUCUGGUGGGAAGGCAGCUCGGUAAAGUUUCCCUCCUGCUCCCCCCGCCCGACU: 0.402
GCCUCUGUUUAUUUUUGCUUGUUGGAAAUAGGGUUCAACCAUGCAUAGUUAGAAUCACUAUGCAUCUGUCUGUCCACACAGGAAGUGCUAUAGCUCUCAAGUGCUCUAGA: 1.27
GGGGACAAUUUCCCCAUCCCCAAGUGGGGACAAUUUACUUCCUUCUUUGCUGGUUUACUCUAGGACUUCAAAGUUUGUCUGGGAUUUUUUUAUUAAAAAAAAUUGUCUUU: 1.68
AAAUUGGAAGGGUUUUGAGAUAUCCUAGAGAAAGAGCAAGCACUUUCUGAAUCAGUGGGGAAAUAUCAAUAUUUGAUCAAAUUAACACUACCUCCUUCCCAGUGUUGGUG: 0.517
